Measurements gathered from unrelated publications.
Lines come from different studies, so protocols differ.

`ksi Y16A/D40R/F56A/D103A (Pseudomonas putida)` has a pKa of greater than 10 (UV-vis, item: Tyr57; 25 °C).
`iscU apo (Escherichia coli, UniProt P0ACD4)` has a pKa of less than 5.4 (NMR titration, item: His105; 25 °C, NaCl 150 mM, S-state, averaged, apo).
The pKa of `ksi D103N (Pseudomonas putida)` is reported as greater than 10 (UV-vis, item: Tyr57; 25 °C).
`PBP1 mature (Amyelois transitella)` gave a pKa of greater than 7 (NMR, item: His70; 25 °C, free protein; not delipidated).
`ksi D40A/D103A (Pseudomonas putida)` has a pKa of 8.7 (UV-vis, item: Tyr57; 25 °C).
`PRL (Homo sapiens, UniProt P01236)` gave a pKa of 5.28 (NMR, item: His30; 35 °C, 25 mM NaCl, apparent; independent-site fit, numbering of the source).
The pKa of `PCSK1 propeptide domain (Homo sapiens, UniProt P29120)` is reported as 5.85 (mass spectrometry, item: His85; apparent, histidine H/D exchange, pepsin digest).
`WT1 zinc finger 4 (Homo sapiens, UniProt P19544)` has a pKa of 6.2 (NMR, item: His23; 288 K, KCl 10 mM, apo, unfolded, reduced, numbering of the source).
With `ahpC (Salmonella typhimurium, UniProt P0A251)` the pKa was 8.55 (chemical modification, mass spectrometry, item: Cys46; ammonium sulfate 100 mM, numbering of the source).
`nuc G50F/V51N/P117G/H124L/S128A/del44-49/E122Q (Staphylococcus aureus)` has a pKa of 5.3 (NMR, item: His121; 298 K, KCl 100 mM, numbering of the source).
`CRYGD P23T (Homo sapiens)` has a pKa of 5.97 (NMR, item: His65; 25 °C, numbering of the source).
For `ksi D40L (Pseudomonas putida)`, the pKa was greater than 10 (UV-vis, item: Tyr57; 25 °C).
`CISD1 soluble cytoplasmic domain (Homo sapiens, UniProt Q9NZ45)` has a pKa of 6.7 (redox potentiometric titration, item: His87; oxidised cluster, His87).
With `proteorhodopsin, retinal (uncultured gamma-proteobacterium EBAC31A08, UniProt Q9F7P4)` the pKa was 7.1 (UV-vis, item: Asp97; NaCl 100 mM, small DMPC nanodisc, monomeric).
The pKa of `ksi Y32F/D40R/F56A/D103A (Pseudomonas putida)` is reported as greater than 10 (UV-vis, item: Tyr57; 25 °C).
`CRYGD (Homo sapiens, UniProt P07320)` has a pKa of 6.2 (NMR, item: His121; 25 °C, numbering of the source).
With `ORF56 (Sulfolobus islandicus, UniProt Q54323)` the pKa was 9.14 (NMR, item: Tyr16; free native homodimer, low salt).
The pKa of `ksi D40K/D103N (Pseudomonas putida)` is reported as 9.2 (UV-vis, item: Tyr57; 25 °C).

Repeated from above:
With `ahpC (Salmonella typhimurium, UniProt P0A251)` the pKa was 8.55 (chemical modification, mass spectrometry, item: Cys46; ammonium sulfate 100 mM, numbering of the source).
The pKa of `ksi D40K/D103N (Pseudomonas putida)` is reported as 9.2 (UV-vis, item: Tyr57; 25 °C).
`ksi Y16A/D40R/F56A/D103A (Pseudomonas putida)` has a pKa of greater than 10 (UV-vis, item: Tyr57; 25 °C).
